Published values from different studies.
Values joined by “and” are separate records of one study, mostly repeats; a detail may differ. ± gives the spread as reported.

Under “PR interval change”, `CCN1/C(=C/C(C)=O)Sc2ccc(F)cc21` is recorded as 102 ± 7.4% (cynomolgus monkey; oral, 10 mg/kg, 1 h post-dose; relative to: pre-dose).
For `CC[C@H](CO)N(CCN(N=O)[C@H](CC)CO)N=O`, “revertant colonies per plate” read 22.3 ± 4 (Salmonella typhimurium; plate incorporation; TA1535, water; 150 µg/plate, without S9 test 2).
The viability of `CC(=NNC(=O)COc1ccc2c(C)c(Cc3ccccc3)c(=O)oc2c1C)c1ccc(Br)cc1` is reported as 44.7% (HPrEC normal prostate epithelial cells; MTT; 100 µg/mL, 2% serum).
For `CC(C)(C)NC(=O)[C@@H]1C[C@@H]2CCCC[C@@H]2CN1C[C@@H](O)[C@H](Cc1ccccc1)NC(=O)[C@H](CC(N)=O)NC(=O)c1ccc2ccccc2n1`, the EC50 was 206 µM (HEK293T tetracycline-induced EGFP-ΔE; cytotoxicity; relative to: vehicle).
`C/C=C/C(=O)Nc1ccc(OS(=O)(=O)C2CC3OC2C(c2ccc(O)cc2)=C3c2ccc(O)cc2)cc1` (stereo not shown) has an IC50 of 27.3 ± 2.94 µM (MCF-10A; cell viability; 72 (unit not given)).
With `Cc1ncc([N+](=O)[O-])n1CCO` the CC50 was ~200 µM (pigeon embryo fibroblasts).
With `CC(C)=CC(=O)Nc1ccc(C2=C(c3ccc(O)cc3)C3OC2CC3S(=O)(=O)N(CC(F)(F)F)c2cccc(O)c2)cc1` (stereo not shown) the IC50 was 18 ± 1.48 µM (MCF-10A; cell viability; 72 (unit not given)).
With `CCCCCCC[P+](/C=C(/c1ccccc1)c1cc(Cl)ccc1O)(CCCCCCC)CCCCCCC.[Cl-]` the HC50 was 34 µM (human red blood cells; PBS; 1 h, 37 °C).
For `Cn1cc(-c2ccc(-c3cncc(Cl)c3N3CCC4(CCNC4=O)CC3)cc2)cn1`, “log2 fold change” read -2.25 (COLO 205; gene expression, microarray, refers to: GNAZ mRNA; concentration not given, 6 h; relative to: untreated cells).
With `COc1cccc2c1C(=O)c1c(O)c3c(c(O)c1C2=O)C[C@@](O)(C(=O)CO)C[C@@H]3O[C@H]1C[C@H](N)[C@H](O)[C@H](C)O1` the cytotoxicity was 0.5 ± 0.3% (MCF-10A; 50 µM, 48 (unit not given); relative to: negative control).
The HC50 of `CCCC[P+](/C=C(/c1ccccc1)c1cc(Cl)ccc1OC)(CCCC)CCCC.[I-]` is reported as 105 µM (human red blood cells; PBS; 1 h, 37 °C).
`COc1cc2ncnc(Nc3ccc(Oc4ccccc4)c(C)c3C)c2cc1OC.Cl` gave a viability fraction of 0.704 (LoVo (KRAS G13D); resazurin; 3 µM, 72 h, with: trametinib 0 nM; relative to: DMSO).
Under “aberrant cells with gaps”, `Cc1noc(C)c1Cn1cc(N2C(=O)CN(Cc3cccc(O)c3)C2=O)cn1` is recorded as 2% (human blood lymphocytes; 296.6 µg/mL, 3 h).
`Oc1c(I)cc(Cl)c2cccnc12` has a CC50 of 40 µM (pigeon embryo fibroblasts).
`C[C@]12CC[C@@H]3c4ccc(O)cc4C[C@@H](CCCCCCCCC[S+]([O-])CCCC(F)(F)C(F)(F)F)[C@H]3[C@@H]1CC[C@@H]2O` (stereo partly shown) gave a viability of 72.6% and 70.3% and 63.3% (MCF7; CCK-8; 10 nM; relative to: untreated).
`O=C(CCl)Nc1ccc(C2=C(c3ccc(O)cc3)C3CC(S(=O)(=O)Oc4ccccc4)C2O3)cc1` (stereo not shown) has an IC50 of 9.02 ± 0.27 µM (MCF-10A; cell viability; 72 (unit not given)).
For `O=C(C[C@@H](C(F)F)n1ccc(F)n1)N1CCC(O)(Cn2cnc3c(cnn3-c3ccc(F)cc3)c2=O)CC1`, the viability was 44.6% and 50.6% (CHP-212 parental; SRB; 0.08231 µM).
For `Cc1cc(C(=O)NC(C)(C)COc2cccc3c2C(N)=NS(=O)(=O)N3)cc(C)n1`, the cytotoxicity was 10% (human peripheral blood lymphocytes; CBPI, preliminary test; 600 µg/mL, 4 h, with: rat liver S9; relative to: vehicle control).
`COC1=CC(c2cc3ccccc3[nH]2)=N/C1=C\c1[nH]c(C)cc1C` gave a CC50 of 15 µM (pigeon embryo fibroblasts).
For `C[C@]12CC[C@@H]3c4ccc(O)cc4C[C@@H](CCCCCCCCC[S+]([O-])CCCC(F)(F)C(F)(F)F)[C@H]3[C@@H]1CC[C@@H]2O` (stereo partly shown), the IC50 was > 50 µM (MCF-10A; cell viability; 72 (unit not given)).
The CC50 of `Cc1nn(-c2nc3c(F)cc(F)cc3s2)c(O)c1C(c1ccc(C(F)(F)F)cc1)c1c(C)nn(-c2nc3c(F)cc(F)cc3s2)c1O` is reported as 56.8 µM (RAW-ISG (mouse); cell viability, CCK-8; 24 h).
`Cc1c(O)cccc1C(=O)N[C@@H](CSc1ccccc1)[C@H](O)CN1C[C@H]2CCCC[C@H]2C[C@H]1C(=O)NC(C)(C)C` has an EC50 of 4.2 µM (HEK293T tetracycline-induced EGFP-ΔE; cytotoxicity; relative to: vehicle).
With `CN1C[C@@H]2C[C@H]1CN2c1cc2c(cc1F)c(=O)c(C(=O)O)cn2C1CC1` the percent transported was 19.4 ± 3.45% (MDCK-II parental; basolateral-to-apical transport, transepithelial transport; HBSS with HEPES; 10 µM, 4 h).
The CC50 of `Cc1nc(C)c(Cl)c(O)c1Cl` is reported as 50 µM (pigeon embryo fibroblasts).
`CCOC(=O)c1c(C)nc2ccc(-c3cccc(F)c3)cc2c1O` — result for cytotoxicity: “not toxic” (MCF-10A; MTT; up to 100 µM).
For `CC(C)C[C@H](NC(=O)[C@H](Cc1ccccc1)NC(=O)c1cnccn1)B(O)O`, the viability was 100% and 95.6% (CHP-212 parental; SRB; 0.3704 µM).
With `COC(=O)N[C@H](C(=O)N[C@@H](Cc1ccccc1)[C@@H](O)CN(Cc1ccc(-c2ccccn2)cc1)NC(=O)[C@@H](NC(=O)OC)C(C)(C)C)C(C)(C)C` the EC50 was 53.3 µM (HEK293T tetracycline-induced EGFP-ΔE; cytotoxicity; relative to: vehicle).
With `CC(=O)O[C@H]1C(=O)[C@@]2(C)[C@H]([C@H](OC(=O)c3ccccc3)[C@]3(O)C[C@H](OC(=O)[C@H](O)[C@@H](NC(=O)c4ccccc4)c4ccccc4)C(C)=C1C3(C)C)[C@]1(OC(C)=O)CO[C@@H]1C[C@@H]2O` the viability was 66.1% and 76.7% (CHP-212 parental; SRB; 0.01372 µM).
The EC50 of `CCCCCCNc1nc(NC2CCN(C)CC2)c2cc(OC)c(OC)cc2n1` is reported as 0.85 µM (Toxoplasma gondii; bradyzoite growth; pH 8.2, alkaline-induced bradyzoites).
`COc1cccc2c1C(=O)c1c(O)c3c(c(O)c1C2=O)C[C@@](O)(C(=O)CO)C[C@@H]3O[C@H]1C[C@H](N)[C@H](O)[C@H](C)O1` has a viability of 14% and 17.7% (CHP-212 parental; SRB; 0.3704 µM).
The HC50 of `CCCCCC[P+](/C=C(/c1ccccc1)c1cc(Cl)ccc1OC)(CCCCCC)CCCCCC.[I-]` is reported as 8 µM (human red blood cells; PBS; 1 h, 37 °C).
For `CC(C)=CC(=O)Nc1ccc(C2=C(c3ccc(O)cc3)C3CC(S(=O)(=O)Oc4ccc(O)cc4)C2O3)cc1` (stereo not shown), the IC50 was 13.6 ± 0.35 µM (MCF-10A; cell viability; 72 (unit not given)).
`COc1cccc(-c2n[nH]c(SCc3ccccn3)n2)c1OC` — result for “micronuclei per binucleated cell”: 0.014 (CHO-WBL; 31 µg/mL, 19 h, without S9).
For `CN(C)[C@@H]1C(O)=C(C(N)=O)C(=O)[C@@]2(O)C(O)=C3C(=O)c4c(O)ccc(Cl)c4[C@@](C)(O)[C@H]3C[C@@H]12`, the CC50 was 40 µM (pigeon embryo fibroblasts).
`CCCCCCN(Cc1ccccc1)Cc1ccc(CNC(=O)c2csc3nc[nH]c(=O)c23)cc1` has a hemolysis of ~7% (human red blood cells; 100 µM, 1 h).
`CCCCCC[P+](/C=C(/c1ccccc1)c1cc(Cl)ccc1O)(CCCCCC)CCCCCC.[Cl-]` gave an HC50 of 19 µM (human red blood cells; PBS; 1 h, 37 °C).
`COC(=O)Nc1nc2cc(C(=O)c3ccc(F)cc3)ccc2[nH]1` gave a CC50 of 40 µM (pigeon embryo fibroblasts).
Under cytotoxicity, `CCOC(=O)c1c(C)nc2ccc(-c3ccc(F)c(F)c3)cc2c1O` is recorded as “not toxic” (MCF-10A; MTT; up to 100 µM).
For `Cc1cc(CN)cc(C)c1NC(=O)c1ccc(-c2cc(Cl)ccc2Cl)o1`, the EC50 was 11.5 µM (Toxoplasma gondii; parasite growth; HFF, bradyzoite, alkaline-induced).
For `Oc1c(I)cc(I)c2cccnc12`, the CC50 was 40 µM (pigeon embryo fibroblasts).
`COc1ncnc(C2CC2)c1-c1ncc2cnn(Cc3ccc(-c4nc(C(F)(F)F)cn4C(C)C)cc3)c2n1` has a viability of 67% and 70.5% (CHP-212 parental; SRB; 25 µM).
The IC50 of `CC(C)=CC(=O)Nc1ccc(OS(=O)(=O)C2CC3OC2C(c2ccc(O)cc2)=C3c2ccc(O)cc2)cc1` (stereo not shown) is reported as 43.8 ± 2.85 µM (MCF-10A; cell viability; 72 (unit not given)).
Under “cells with structural aberrations”, `COC[C@@H](CC(C)C)NC(=O)c1ccc(C)c(C)c1` is recorded as 0.5% (primary human lymphocytes; 322 µg/mL, 4 (unit not given), with S9).
With `CCCCC[P+](/C=C(/c1ccccc1)c1cc(Cl)ccc1OC)(CCCCC)CCCCC.[I-]` the HC50 was 25 µM (human red blood cells; PBS; 1 h, 37 °C).
The viability of `Cc1ccc(CNC(=O)Cn2cc(CSc3nc4ccccc4[nH]3)nn2)cc1` is reported as 28.4% (HEK293; MTT; 15.6 ppm).
`C=CC(=O)Nc1ccc(C2=C(c3ccc(O)cc3)C3OC2CC3S(=O)(=O)N(CC(F)(F)F)c2ccc(O)cc2)cc1` (stereo not shown) gave an IC50 of 20.7 ± 0.88 µM (MCF-10A; cell viability; 72 (unit not given)).
The cell growth of `CC/C(=C(/c1ccc(OCCNC)cc1)c1ccc(B2OC(C)(C)C(C)(C)O2)cc1)c1ccccc1` is reported as 69% (MCF7; 0.1 µM; relative to: vehicle).
For `C#Cc1cccc(Nc2ncnc3cc(OCCOC)c(OCCOC)cc23)c1`, the viability was 49% (HPrEC normal prostate epithelial cells; MTT; 25 µg/mL, 2% serum).
`C#CC(=O)Nc1ccc(OS(=O)(=O)C2CC3OC2C(c2ccc(O)cc2)=C3c2ccc(O)cc2)cc1` (stereo not shown) has an IC50 of 39.2 ± 2.67 µM (MCF-10A; cell viability; 72 (unit not given)).

Some of these lines once more:
For `Cn1cc(-c2ccc(-c3cncc(Cl)c3N3CCC4(CCNC4=O)CC3)cc2)cn1`, “log2 fold change” read -2.25 (COLO 205; gene expression, microarray, refers to: GNAZ mRNA; concentration not given, 6 h; relative to: untreated cells).
With `CN1C[C@@H]2C[C@H]1CN2c1cc2c(cc1F)c(=O)c(C(=O)O)cn2C1CC1` the percent transported was 19.4 ± 3.45% (MDCK-II parental; basolateral-to-apical transport, transepithelial transport; HBSS with HEPES; 10 µM, 4 h).
With `CC(=O)O[C@H]1C(=O)[C@@]2(C)[C@H]([C@H](OC(=O)c3ccccc3)[C@]3(O)C[C@H](OC(=O)[C@H](O)[C@@H](NC(=O)c4ccccc4)c4ccccc4)C(C)=C1C3(C)C)[C@]1(OC(C)=O)CO[C@@H]1C[C@@H]2O` the viability was 66.1% and 76.7% (CHP-212 parental; SRB; 0.01372 µM).
